Assay results pooled from the literature.
Each line is one published result; not all experiments were run side by side. Several values in a cell are separate wells, animals, samples, runs or records.
Sequence of UniProt Q9Y6I4 (whole entry, looked up): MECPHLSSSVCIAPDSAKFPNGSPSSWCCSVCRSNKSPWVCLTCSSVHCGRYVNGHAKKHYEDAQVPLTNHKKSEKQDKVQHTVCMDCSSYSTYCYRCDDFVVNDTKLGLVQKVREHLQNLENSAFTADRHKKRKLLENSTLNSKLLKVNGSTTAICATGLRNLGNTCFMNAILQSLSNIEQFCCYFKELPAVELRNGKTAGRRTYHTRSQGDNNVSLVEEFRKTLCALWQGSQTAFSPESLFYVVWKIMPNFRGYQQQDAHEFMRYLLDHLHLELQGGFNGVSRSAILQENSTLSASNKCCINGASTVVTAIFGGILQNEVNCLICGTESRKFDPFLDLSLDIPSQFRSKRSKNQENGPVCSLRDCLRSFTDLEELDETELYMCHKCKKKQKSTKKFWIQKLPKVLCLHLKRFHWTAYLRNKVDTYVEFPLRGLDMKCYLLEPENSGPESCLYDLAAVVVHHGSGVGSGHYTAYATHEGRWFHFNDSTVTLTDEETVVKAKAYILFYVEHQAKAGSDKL

Structure (SMILES) | target or system | assay | system | setting | scale | measurement | value
CC(C)n1ncc2c(C(=O)NCC3(C)CNC3)cc(C3CC3)nc21 | Enterovirus D68 | cytopathic effect | RD, US/IL/14-18952 | 15 nM |  | cell protection | -1.22% and -0.946% and -0.811%
Cc1cccn2c(=O)c(/C=C3\SC(=S)N(CC(C)C)C3=O)c(NCCCOC(C)C)nc12 | Mus musculus | gene silencing, high-content imaging | LDR reporter GFP cells | retest run 1 |  | maximal activity | 48%
COc1cc(Nc2nccc(Nc3ccc4c(C)n[nH]c4c3)n2)cc(OC)c1OC | Trypanosoma brucei |  |  | unit not given | reference: pEC50 T. brucei minus pTC50 HepG2 | selectivity | 1.6
O=C(O)Cn1cnc2ccccc2c1=O | Ubiquitin carboxyl-terminal hydrolase 3, ZnF-UBD domain (USP3, Homo sapiens, UniProt Q9Y6I4) |  |  |  |  | Kd | 328 µM
Cn1cc(-c2ccc(-c3cncc(Cl)c3N3CCC4(CCNC4=O)CC3)cc2)cn1 | COLO 205 | gene expression, microarray, measured: FOSL1 mRNA |  | concentration not given, 2 h | reference: untreated cells | log2 fold change | 2.51
CC(C)C[C@@H](C=O)NC(=O)[C@H](CC(C)C)NC(=O)[C@H](CC(C)C)NC(=O)OCc1ccccc1 | Mus musculus | gene silencing, high-content imaging | LDR reporter GFP cells | 30 h, confirmation, mean of two runs |  | Emax | 91%
NC(=O)c1ccc(-c2nc(-c3ccccn3)c(-c3ccc4c(c3)OCO4)[nH]2)cc1 | Trypanosoma brucei brucei | cell growth |  | concentration not given, PKIS HTS |  | inhibition | 18.1%
c1coc(-c2n[nH]cc2-c2ccnc3ccccc23)c1 | POM1 (Candida albicans) | kinase binding, MIB/MS competition | Candida albicans lysate | 1 µM | reference: DMSO | log2 fold change | -0.26
O=C(Nc1ccc(C2CCCCC2)cc1)c1cn[nH]c1 |  |  | rat liver microsomes | 1 µM |  | hepatic clearance | 39 mL/min/kg
CC(C)NCC(O)c1ccc(O)c(O)c1 (stereo not drawn) |  |  | ventricular cardiomyocytes, C57BL/6 mouse | dose not given, 0.812 s |  | sarcomere length | 1.58 µm
O=C(Nc1ccc(Oc2ccc3nc(NC(=O)c4ccco4)[nH]c3c2)cc1)Nc1cc(C(F)(F)F)ccc1F | Trypanosoma brucei |  |  | unit not given | reference: pEC50 T. brucei minus pTC50 HepG2 | selectivity | 0.6
Oc1ccccc1-c1n[nH]cc1-c1ccnc2ccccc12 | AKL1 (Candida albicans) | kinase binding, MIB/MS competition | Candida albicans lysate | 1 µM | reference: DMSO | log2 fold change | -0.01
COc1ccnc(CSC(N)=Nc2ccccc2OC)c1.Cl | Mus musculus | gene silencing, high-content imaging | LDR reporter GFP cells | retest run 2 |  | maximal activity | 161%
N#Cc1cccc(Nc2ncc(-c3ccccc3)o2)c1 | Trypanosoma brucei |  |  | unit not given | reference: pEC50 T. brucei minus pTC50 HepG2 | selectivity | 1.1
O=C(NCCc1cccnc1)c1ccc(C2CCCCC2)cc1 |  | hepatocyte stability | cryopreserved rat hepatocytes | 1 µM |  | hepatic clearance | 47 mL/min/kg
